Assay results of several laboratories.
Each line is one published result; not all experiments were run side by side.
SART3: SART3 697-786 (Homo sapiens, UniProt Q15020)
Chain of UniProt Q15020 (whole entry, looked up): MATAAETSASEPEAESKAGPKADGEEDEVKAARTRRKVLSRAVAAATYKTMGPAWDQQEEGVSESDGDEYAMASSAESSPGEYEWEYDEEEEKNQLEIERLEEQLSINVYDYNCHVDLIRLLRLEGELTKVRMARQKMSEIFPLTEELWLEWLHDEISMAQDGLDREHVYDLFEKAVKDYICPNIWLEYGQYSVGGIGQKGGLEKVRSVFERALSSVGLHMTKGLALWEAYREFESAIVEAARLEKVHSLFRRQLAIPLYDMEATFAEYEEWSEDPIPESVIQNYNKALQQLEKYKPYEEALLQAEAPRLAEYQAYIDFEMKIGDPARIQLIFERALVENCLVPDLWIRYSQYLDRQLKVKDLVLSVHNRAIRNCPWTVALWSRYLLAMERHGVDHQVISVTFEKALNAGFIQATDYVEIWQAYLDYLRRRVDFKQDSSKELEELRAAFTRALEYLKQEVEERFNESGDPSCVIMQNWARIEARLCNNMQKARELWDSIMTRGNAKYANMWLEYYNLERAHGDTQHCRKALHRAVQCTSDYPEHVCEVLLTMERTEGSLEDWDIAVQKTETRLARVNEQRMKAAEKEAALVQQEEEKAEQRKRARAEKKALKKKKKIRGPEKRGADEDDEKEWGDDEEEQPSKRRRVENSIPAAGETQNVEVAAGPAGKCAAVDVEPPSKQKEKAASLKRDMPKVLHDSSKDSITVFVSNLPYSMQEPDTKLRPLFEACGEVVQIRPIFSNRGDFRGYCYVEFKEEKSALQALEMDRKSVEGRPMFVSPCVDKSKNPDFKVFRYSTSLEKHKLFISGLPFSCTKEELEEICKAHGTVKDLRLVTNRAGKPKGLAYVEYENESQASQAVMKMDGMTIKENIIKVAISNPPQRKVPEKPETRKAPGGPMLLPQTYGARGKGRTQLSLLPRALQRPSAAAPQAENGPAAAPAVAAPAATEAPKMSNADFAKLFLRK
U2AF2: U2AF2 148-342 (Homo sapiens, UniProt P26368)
Chain of UniProt P26368 (whole entry, looked up): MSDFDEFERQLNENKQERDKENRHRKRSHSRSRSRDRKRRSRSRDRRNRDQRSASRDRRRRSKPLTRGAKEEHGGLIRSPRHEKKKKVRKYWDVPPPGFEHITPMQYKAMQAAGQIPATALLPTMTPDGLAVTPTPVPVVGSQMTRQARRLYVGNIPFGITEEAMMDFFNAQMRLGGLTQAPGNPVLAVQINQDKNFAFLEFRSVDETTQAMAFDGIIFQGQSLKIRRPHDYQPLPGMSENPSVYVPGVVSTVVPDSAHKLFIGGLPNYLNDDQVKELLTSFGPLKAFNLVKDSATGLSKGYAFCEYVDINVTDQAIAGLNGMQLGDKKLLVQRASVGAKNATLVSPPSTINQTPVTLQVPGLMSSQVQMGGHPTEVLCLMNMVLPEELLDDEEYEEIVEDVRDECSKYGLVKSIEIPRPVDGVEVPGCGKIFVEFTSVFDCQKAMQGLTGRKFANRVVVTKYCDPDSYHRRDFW
Chain of UniProt Q9H165 (whole entry, looked up): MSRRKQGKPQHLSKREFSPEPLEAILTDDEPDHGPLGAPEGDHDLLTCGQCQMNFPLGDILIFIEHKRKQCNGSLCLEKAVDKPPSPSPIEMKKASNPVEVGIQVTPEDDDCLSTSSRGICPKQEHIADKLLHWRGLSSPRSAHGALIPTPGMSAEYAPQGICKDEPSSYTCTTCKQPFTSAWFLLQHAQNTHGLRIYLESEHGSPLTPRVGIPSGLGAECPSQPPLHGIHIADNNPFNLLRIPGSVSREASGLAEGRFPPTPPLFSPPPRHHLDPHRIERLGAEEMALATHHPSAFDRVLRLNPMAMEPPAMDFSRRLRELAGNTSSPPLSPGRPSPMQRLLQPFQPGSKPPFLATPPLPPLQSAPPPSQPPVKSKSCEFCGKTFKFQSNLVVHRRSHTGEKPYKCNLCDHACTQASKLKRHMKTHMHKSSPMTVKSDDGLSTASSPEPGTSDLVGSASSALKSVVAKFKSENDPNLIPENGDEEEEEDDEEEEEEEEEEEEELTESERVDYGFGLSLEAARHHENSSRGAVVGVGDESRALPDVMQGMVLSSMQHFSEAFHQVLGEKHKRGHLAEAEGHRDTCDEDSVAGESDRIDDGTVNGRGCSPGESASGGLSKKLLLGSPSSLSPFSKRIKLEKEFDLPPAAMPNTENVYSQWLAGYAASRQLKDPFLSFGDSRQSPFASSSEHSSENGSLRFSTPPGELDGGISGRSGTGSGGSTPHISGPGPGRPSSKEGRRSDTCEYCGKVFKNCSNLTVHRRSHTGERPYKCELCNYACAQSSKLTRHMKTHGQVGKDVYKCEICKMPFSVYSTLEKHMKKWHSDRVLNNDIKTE
Chain of UniProt Q7EZT1 (whole entry, looked up): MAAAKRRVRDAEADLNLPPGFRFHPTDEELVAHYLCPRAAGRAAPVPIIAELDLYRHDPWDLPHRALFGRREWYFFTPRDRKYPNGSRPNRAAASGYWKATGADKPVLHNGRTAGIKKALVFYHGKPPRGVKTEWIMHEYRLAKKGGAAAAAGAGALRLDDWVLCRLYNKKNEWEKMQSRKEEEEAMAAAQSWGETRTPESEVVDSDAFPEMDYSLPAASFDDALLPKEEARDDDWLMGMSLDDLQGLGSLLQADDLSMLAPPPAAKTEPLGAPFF
Chain of UniProt P17676 (whole entry, looked up): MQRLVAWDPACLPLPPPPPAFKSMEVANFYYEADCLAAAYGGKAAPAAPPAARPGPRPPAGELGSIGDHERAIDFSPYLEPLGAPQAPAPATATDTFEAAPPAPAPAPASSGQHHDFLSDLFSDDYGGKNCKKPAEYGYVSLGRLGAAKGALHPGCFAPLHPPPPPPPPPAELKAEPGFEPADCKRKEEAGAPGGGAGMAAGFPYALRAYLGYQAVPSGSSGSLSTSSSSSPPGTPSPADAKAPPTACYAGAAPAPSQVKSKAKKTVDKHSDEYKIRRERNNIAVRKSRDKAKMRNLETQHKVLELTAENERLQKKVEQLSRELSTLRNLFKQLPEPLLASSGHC
Chain of UniProt Q9SAH7 (whole entry, looked up): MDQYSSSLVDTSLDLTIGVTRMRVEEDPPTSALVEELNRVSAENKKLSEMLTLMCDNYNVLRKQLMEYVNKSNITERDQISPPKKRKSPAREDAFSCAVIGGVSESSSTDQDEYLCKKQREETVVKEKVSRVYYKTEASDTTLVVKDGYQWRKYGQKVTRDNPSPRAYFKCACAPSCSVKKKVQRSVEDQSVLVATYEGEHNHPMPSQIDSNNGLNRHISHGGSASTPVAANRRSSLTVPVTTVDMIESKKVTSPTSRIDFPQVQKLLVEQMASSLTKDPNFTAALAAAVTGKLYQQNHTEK
Chain of UniProt Q9C5T4 (whole entry, looked up): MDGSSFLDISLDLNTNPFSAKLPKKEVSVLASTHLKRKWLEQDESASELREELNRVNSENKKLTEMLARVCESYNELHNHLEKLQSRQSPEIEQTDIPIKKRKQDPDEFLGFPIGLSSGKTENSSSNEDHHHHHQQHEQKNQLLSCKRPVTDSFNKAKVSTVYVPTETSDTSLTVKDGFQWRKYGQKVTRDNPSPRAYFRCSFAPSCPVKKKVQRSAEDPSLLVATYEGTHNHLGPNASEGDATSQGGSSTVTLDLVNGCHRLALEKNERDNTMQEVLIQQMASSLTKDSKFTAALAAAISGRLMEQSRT
Chain of UniProt Q9Y6M1 (whole entry, looked up): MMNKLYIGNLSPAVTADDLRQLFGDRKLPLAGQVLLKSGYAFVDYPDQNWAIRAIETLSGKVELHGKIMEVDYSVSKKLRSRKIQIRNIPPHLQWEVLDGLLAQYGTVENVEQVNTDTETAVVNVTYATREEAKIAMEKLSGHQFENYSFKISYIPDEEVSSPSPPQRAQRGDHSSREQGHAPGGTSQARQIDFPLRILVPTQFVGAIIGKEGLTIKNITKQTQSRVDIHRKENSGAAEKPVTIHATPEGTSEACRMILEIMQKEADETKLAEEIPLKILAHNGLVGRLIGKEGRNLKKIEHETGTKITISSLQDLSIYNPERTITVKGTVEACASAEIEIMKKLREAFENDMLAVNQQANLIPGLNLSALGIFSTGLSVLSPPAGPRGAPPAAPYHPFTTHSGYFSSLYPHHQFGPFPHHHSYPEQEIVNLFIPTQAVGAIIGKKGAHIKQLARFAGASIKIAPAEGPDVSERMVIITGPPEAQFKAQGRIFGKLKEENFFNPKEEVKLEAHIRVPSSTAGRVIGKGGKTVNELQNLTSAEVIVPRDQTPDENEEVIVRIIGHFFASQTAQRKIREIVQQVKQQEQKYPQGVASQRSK
Chain of UniProt Q10MB4 (whole entry, looked up): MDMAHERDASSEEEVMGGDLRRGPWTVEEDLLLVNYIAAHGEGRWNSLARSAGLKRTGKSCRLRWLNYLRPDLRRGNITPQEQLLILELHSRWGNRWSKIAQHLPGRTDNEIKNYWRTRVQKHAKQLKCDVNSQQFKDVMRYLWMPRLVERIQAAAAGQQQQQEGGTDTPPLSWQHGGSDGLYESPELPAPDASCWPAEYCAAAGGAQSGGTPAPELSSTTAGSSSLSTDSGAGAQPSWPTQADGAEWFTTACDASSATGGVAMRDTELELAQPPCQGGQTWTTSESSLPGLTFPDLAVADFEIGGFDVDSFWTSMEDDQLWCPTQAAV
Chain of UniProt Q43349 (whole entry, looked up): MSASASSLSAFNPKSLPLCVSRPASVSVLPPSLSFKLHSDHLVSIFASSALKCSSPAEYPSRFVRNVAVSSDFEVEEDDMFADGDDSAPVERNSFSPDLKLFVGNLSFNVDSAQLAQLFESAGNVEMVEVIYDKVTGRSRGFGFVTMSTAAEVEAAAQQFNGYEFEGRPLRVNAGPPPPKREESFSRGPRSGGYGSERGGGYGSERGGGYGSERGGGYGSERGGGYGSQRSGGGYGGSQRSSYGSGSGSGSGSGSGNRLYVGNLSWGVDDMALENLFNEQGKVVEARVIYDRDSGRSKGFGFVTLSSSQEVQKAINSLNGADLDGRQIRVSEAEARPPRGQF
Chain of UniProt Q7A225 (whole entry, looked up): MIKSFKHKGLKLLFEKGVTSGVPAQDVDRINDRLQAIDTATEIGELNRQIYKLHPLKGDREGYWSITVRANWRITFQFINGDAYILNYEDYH

| Strand | target | assay | system | setting | measurement | value |
| --- | --- | --- | --- | --- | --- | --- |
| AAAGAAAAAGGGATCGAACTTTTGACATTCGATCCCTTTTTCTGTAATCTGTTTCGTGCGTTCTTTGCTAAGATACAGACCCTAGACAAGTCATATCTTAGCAAAGGGTAGCTAGTAATGCAAGAGATTGCGAAGCGTCCCTACTACCAAAAAACCATTCAACGACGTAAACAGACAAACGCAAACCTTAAATTAGACG (dsDNA) | ihfA/ihfB 1-98; 1-95 (Aggregatibacter actinomycetemcomitans) | EMSA | double-stranded DNA, one strand shown |  | binding | no binding |
| TCCAAGCGGGATGCGGAGCCGCCGCCGCCGCCG (dsDNA; blunt) | WT1 323-438 (Homo sapiens, UniProt P19544) | EMSA | double-stranded DNA, one strand shown |  | binding | no binding |
| AGGATCAGCCATTTGGCACACCAAGTGGTCCAAATGATGATTTAGG (dsDNA) | BZR1 1-298 (Oryza sativa, UniProt Q7XI96) | EMSA | double-stranded DNA, one strand shown |  | binding | binds |
| TGTATTGCACATCGTGTAATATCGCGGTATAGTATTACACACCATGTAATACAGAGATGGC (dsDNA) | higB 1-92 (Proteus vulgaris, UniProt Q7A225) | EMSA | double-stranded DNA, one strand shown |  | binding | no binding |
| ACGAAATATTTATTTTATTTATTTTTTGACAACGAATTTAATTCGGTCAC (dsDNA) | WRKY23 (Oryza sativa, UniProt Q7E0X1) | EMSA | double-stranded DNA, one strand shown |  | binding | binds |
| TATGAGTAAAATAAAAATGGATGGTAATT (dsDNA) | Uncharacterized protein 1-360 (Prunus persica, UniProt M5W9R3) | competition | double-stranded DNA, one strand shown | with: cold mutant probe | binding | no binding |
| TCAAGCTTGGACATGAGCAGTGTCGGTTATGGCCAACGTTCAGTAC (dsDNA) | Auxin response factor 1-896 (Populus tomentosa, UniProt A0A8X8DKC4) | EMSA | double-stranded DNA, one strand shown |  | binding | binds |
| CGGGAACUCGCGUAGACACGCCCG (structured RNA) | NFKB1 41-365 (Homo sapiens, UniProt P19838) | EMSA | folded RNA |  | binding | binds |
| GAUAC (ssRNA) | SART3 | ITC | RNA |  | binding | no binding |
| TTTACAATTGAAAGTTCATGTATCTTCCTAATAAAAAGAACA (dsDNA) | NOR full length assumed (Solanum lycopersicum, UniProt A0A3Q7J5X6) | EMSA | double-stranded DNA, one strand shown |  | binding | binds |
| GCTGTCACTTACTAACTGTCT (dsDNA) | Auxin response factor 1-610 (Capsicum annuum, UniProt A0A1U8F1G4) | MST | double-stranded DNA, one strand shown |  | binding | binds |
| AACUACAGGACUAUUUGACAUCAUAAUAAA (ssRNA) | IGF2BP1 1-577 (Homo sapiens, UniProt Q9NZI8) | pull-down | RNA |  | binding | binds |
| DNA 1 ATACCAGCTTATTCAATT / DNA 2 ATTGCTCCTCAGCAATTGAATAAGCT (dsDNA; 13 bp duplex, 5' overhangs, 5'-NH2) | MUC1 24-1097 (Homo sapiens, UniProt P15941) | magnetic bead strand displacement | double-stranded DNA |  | binding | no binding |
| GAUAAAUUU (ssRNA) | U2AF2 | sequencing of bound RNA | RNA | motif only | Kd | 9.34 µM |
| GGAACCAGTATTACATAATCCGTACAAGTATGAGCTA (dsDNA; blunt) | him-8 full length assumed (Caenorhabditis elegans, UniProt O18068) | streptavidin pull-down, western blot | double-stranded DNA, one strand shown | 1 µM | binding | no binding |
| TTTTTTTTTTTTTTTTTTTTTTTTTTTTTTTTTTTTTTTTTTTTTTTTTTTTTTTTTTTTTTTTT (ssDNA) | yoaA/holC 1-636; 1-147 (Escherichia coli) | EMSA | single-stranded DNA | with: ATPγS | binding | binds |
| AUUGCUCUU (ssRNA) | U2AF2 | sequencing of bound RNA | RNA | motif only | Kd | 5.14 µM |
| CGTTTGTCGCTGTCACGATGTGGACCGTTCTTCTTTATTTTCACGTGGACCGACTTAATTACCTTCTTTCATTCTTGTTATTTCAATATTTTTTACGTCATTTAAACTCCACTTTACCAAAATAATTTATTTCATTCTTTGAGAGCATCAATTATCAAATAATTCAATTGTCTTTTTTCGTGATAGTTGAATAAGGGAC (dsDNA) | WRKY40 full length assumed (Arabidopsis thaliana, UniProt Q9SAH7) | EMSA | double-stranded DNA, one strand shown |  | binding | binds |
| CAGCTGAAGCCATTCCAGTCAACGCTTGCATTTACATTTTTT (dsDNA) | WRKY domain-containing protein 1-700 (Vitis vinifera, UniProt A0ABY9BSD8) | EMSA | double-stranded DNA, one strand shown |  | binding | binds |
| CCAATGTGTAACAAGTAACTTATGACAACACAAATTTCTTCTTTGGTAGAAAACAAACGGGTAAGTAAAAAGAAAAGAAAAAAAGAAGTGAGTGAGAAGAGAGTGTAAGTATAAATAAAAGAAGCACCGCCCTAATCGACCATTCACAACGATGACATTCAAACACTCTTCAG (dsDNA) | WRKY18 full length assumed (Arabidopsis thaliana, UniProt Q9C5T4) | EMSA | double-stranded DNA, one strand shown |  | binding | no binding |

| Strand | target | assay | system | setting | measurement | value |
| --- | --- | --- | --- | --- | --- | --- |
| GCTGGCTTCGTAAGAAGCCAGCTCGCGGTCAGCTTGCTGACCGCG (DNA; dumbbell hairpin, nicked, 5'-phosphate) | PARP1 1-1014 (Homo sapiens, UniProt P09874) | fluorescence microscopy | folded DNA | condensation | binding | binds |
| AGCGTAGCACTGGGCT (dsDNA) | protein full length assumed K369A (Bacillus pumilus, UniProt A3FMN7) | EMSA | double-stranded DNA, one strand shown |  | binding | no binding |
| TAGGCGTGGGCCATGTGACAGAATGAAAGAACTCA (dsDNA) | WRKY70 1-294 (Arabidopsis thaliana, UniProt Q9LY00) | EMSA | double-stranded DNA, one strand shown |  | binding | binds |
| AAACTTCCGTGGAAAACC (dsDNA) | PDR1 1-207 (Saccharomyces cerevisiae, UniProt P12383) | competition | double-stranded DNA, one strand shown |  | binding | binds |
| GACTGACTGATAGATCCTAAGTACTGATTACTGACTATAGATCTAAGTCATGATCAGTTA (dsDNA) | DAXX full length assumed (Homo sapiens, UniProt Q9UER7) | EMSA | double-stranded DNA, one strand shown | 50-500 nM DAXX, 50 nM probe | binding | no binding |
| AAATTTGAACCTCTGTCATTGTACAGAAAAATCGTAATAACCC (dsDNA) | EIN3 1-628 (Arabidopsis thaliana, UniProt O24606) | EMSA | double-stranded DNA, one strand shown |  | binding | binds |
| AUACA (ssRNA) | SART3 | ITC | RNA |  | binding | no binding |
| DNA 1 GCTTGACCAATGC / DNA 2 GCATTGGTCAAG (dsDNA; 5' 1-nt overhang) | BCL11A 730-835 (Homo sapiens, UniProt Q9H165) | X-ray crystallography | double-stranded DNA | with: Zn2+ | binding | binds |
| GCAGCCCTGGTTAAAAACAAGGTTTATAAATATTGGTTTAAAAGCAGGTTAAAAGACAGGTTAGCGGTGG (ssDNA) | trfA 98-382 G254D/S267L/R156E (Escherichia coli, UniProt P07676) | SPR | single-stranded DNA |  | binding | no binding |
| CTGAAGTTTGGTCAAAATAATACGATGAATTTAATATATAAGAGACAAAATTGTTATTGTCGTTTAGGTGGTATCCATATTTCAATATAGTTTGTGTGAATACAGATATAAAAATGGTTATTGTTGTGTATATGATGCAGTTG (dsDNA) | WRKY60 full length assumed (Arabidopsis thaliana, UniProt Q9SK33) | EMSA | double-stranded DNA, one strand shown |  | binding | binds |
| TCTCAAGATCAAAACATTGTCGAATCACGGATCAAAATA (dsDNA) | GATA15 full length assumed (Oryza sativa, UniProt Q6L5E5) | EMSA | double-stranded DNA, one strand shown |  | binding | binds |
| TTAACATGCTTCCAAAATACAAATTACAA (dsDNA) | NAC2 1-315 (Actinidia chinensis, UniProt A0A075EAR8) | EMSA | double-stranded DNA, one strand shown |  | binding | binds |
| TTGGGCGAGCCGCAAGTTGTGTGGGGGAATTGATTG (dsDNA) | NAC067 1-276 (Oryza sativa, UniProt Q7EZT1) | EMSA | double-stranded DNA, one strand shown |  | binding | binds |
| DNA 1 ATTCTTAAGAAAGACG / DNA 2 TCGTCTTTCTTAAGAA (dsDNA; 5' one-nucleotide overhang) | CEBPB 257-336 (Homo sapiens, UniProt P17676) | X-ray crystallography | double-stranded DNA |  | binding | binds |
| CCCCCCUUUCACGUUCACUCUGUCU (ssRNA) | IGF2BP2 1-599 (Homo sapiens, UniProt Q9Y6M1) | fluorescence polarization | RNA | NaCl 150 mM | binding | binds |
| GGGCCGTCCAGAAGCTTCCAGAACCTTCTTCTCCTCCT (dsDNA) | HSFA4D full length assumed (Oryza sativa, UniProt Q93VB5) | EMSA | double-stranded DNA, one strand shown |  | binding | binds |
| TTTTTT (ssDNA) | CP29A 255-334 (Arabidopsis thaliana, UniProt Q43349) | NMR titration | single-stranded DNA |  | binding | binds |
| TTTAGGGTTTAGGGTTTAGGGTTTAGGGTTTAGGGTTTAGGG (ssDNA (Arabidopsis thaliana); single-stranded) | POT1A 1-150 (Arabidopsis thaliana, UniProt Q56Y52) | EMSA | single-stranded DNA | 0.25 µM | binding | binds |
| CTCGTCGTGCGCCAACTGCGAGCGAGGGAG (dsDNA) | MYB2 full length assumed (Oryza sativa, UniProt Q10MB4) | competition | double-stranded DNA, one strand shown |  | binding | binds |
